Measured values collected from several papers.
“And” joins repeats or separate records; there may be more than shown. ± gives the spread as reported.
T1: TnsC/TnsD A225V (Escherichia coli); chain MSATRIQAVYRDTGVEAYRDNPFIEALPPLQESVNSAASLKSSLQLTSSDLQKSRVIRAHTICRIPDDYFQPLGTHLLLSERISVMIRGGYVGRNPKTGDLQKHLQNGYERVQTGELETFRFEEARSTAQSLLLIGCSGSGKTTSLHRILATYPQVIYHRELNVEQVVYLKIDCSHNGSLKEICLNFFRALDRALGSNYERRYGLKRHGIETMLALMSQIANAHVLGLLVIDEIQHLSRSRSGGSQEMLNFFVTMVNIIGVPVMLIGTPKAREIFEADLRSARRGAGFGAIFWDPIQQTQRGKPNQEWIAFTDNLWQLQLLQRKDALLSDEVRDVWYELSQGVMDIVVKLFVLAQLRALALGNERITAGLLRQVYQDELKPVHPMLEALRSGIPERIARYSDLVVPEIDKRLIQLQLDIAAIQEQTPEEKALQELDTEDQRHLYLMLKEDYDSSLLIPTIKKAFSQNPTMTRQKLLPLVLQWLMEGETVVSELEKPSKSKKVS; chain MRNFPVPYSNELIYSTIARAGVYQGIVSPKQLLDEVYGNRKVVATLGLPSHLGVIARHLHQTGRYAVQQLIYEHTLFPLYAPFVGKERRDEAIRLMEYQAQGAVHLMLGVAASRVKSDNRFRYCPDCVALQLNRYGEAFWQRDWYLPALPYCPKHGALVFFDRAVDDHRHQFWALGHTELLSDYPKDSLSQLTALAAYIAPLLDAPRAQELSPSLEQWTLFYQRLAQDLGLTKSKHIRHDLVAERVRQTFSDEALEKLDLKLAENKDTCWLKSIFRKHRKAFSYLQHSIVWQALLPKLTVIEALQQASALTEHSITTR
UniProt Q64663, sequence (whole entry, unmodified, looked up): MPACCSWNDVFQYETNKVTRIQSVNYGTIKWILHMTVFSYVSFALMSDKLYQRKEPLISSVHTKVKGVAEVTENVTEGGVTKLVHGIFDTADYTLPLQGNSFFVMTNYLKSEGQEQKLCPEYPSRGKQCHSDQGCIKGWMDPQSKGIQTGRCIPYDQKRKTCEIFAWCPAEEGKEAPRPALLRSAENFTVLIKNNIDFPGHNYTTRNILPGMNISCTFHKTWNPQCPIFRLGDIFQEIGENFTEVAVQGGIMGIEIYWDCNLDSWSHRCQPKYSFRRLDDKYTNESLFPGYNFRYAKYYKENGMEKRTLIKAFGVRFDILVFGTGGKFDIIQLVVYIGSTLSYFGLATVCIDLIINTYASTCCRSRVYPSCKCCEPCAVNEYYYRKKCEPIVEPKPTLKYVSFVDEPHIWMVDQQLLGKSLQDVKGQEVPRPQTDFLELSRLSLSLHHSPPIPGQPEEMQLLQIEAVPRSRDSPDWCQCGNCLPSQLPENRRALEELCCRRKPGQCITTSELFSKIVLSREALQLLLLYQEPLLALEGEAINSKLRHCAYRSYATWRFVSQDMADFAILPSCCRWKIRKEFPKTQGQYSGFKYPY
UniProt P48067, sequence (whole entry, looked up): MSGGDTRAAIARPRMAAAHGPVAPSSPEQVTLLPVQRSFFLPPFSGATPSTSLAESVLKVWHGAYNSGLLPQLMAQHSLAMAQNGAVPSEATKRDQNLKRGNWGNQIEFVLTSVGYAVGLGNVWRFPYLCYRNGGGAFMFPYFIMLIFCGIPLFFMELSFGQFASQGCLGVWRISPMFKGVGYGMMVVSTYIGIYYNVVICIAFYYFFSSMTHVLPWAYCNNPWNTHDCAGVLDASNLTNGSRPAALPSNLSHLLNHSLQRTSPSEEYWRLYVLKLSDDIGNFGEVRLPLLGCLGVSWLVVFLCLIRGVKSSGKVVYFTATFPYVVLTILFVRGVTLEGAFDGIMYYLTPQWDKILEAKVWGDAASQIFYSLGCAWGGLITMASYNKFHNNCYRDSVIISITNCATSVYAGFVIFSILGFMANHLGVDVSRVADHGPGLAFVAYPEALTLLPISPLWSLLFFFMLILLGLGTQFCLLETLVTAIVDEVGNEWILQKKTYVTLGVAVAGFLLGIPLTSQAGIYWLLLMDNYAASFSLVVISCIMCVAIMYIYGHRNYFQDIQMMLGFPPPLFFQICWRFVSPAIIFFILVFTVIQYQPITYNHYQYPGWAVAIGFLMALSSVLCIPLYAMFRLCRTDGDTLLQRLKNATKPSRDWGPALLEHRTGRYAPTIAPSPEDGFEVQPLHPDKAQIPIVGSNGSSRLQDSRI
UniProt Q9SM50, sequence (whole entry, looked up): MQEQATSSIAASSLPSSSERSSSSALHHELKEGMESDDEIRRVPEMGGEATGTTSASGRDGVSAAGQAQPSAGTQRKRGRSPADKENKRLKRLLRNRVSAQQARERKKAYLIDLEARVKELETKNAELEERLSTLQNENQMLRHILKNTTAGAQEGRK
UniProt P11938, sequence (whole entry, looked up): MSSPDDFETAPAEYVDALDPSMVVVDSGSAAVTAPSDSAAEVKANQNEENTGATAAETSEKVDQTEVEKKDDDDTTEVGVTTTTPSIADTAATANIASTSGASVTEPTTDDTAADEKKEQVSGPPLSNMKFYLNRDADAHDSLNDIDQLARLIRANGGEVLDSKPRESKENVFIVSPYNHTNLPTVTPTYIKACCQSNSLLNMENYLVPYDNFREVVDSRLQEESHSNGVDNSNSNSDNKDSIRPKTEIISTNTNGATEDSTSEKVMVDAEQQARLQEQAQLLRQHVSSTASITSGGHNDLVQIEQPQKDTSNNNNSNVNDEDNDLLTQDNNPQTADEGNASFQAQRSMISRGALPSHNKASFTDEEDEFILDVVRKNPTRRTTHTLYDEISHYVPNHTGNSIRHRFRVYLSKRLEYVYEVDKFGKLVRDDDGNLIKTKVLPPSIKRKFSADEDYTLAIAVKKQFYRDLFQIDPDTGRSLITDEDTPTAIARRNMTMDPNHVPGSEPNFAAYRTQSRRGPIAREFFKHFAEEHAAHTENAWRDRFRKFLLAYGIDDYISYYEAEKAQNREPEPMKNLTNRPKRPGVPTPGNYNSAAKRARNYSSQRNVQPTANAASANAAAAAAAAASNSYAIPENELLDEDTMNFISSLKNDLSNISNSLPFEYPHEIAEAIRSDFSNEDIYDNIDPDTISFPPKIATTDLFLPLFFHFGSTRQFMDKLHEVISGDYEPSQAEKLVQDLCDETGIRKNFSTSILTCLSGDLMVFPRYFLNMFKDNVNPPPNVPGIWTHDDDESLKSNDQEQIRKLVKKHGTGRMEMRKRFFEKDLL
UniProt P19338, sequence (whole entry, looked up): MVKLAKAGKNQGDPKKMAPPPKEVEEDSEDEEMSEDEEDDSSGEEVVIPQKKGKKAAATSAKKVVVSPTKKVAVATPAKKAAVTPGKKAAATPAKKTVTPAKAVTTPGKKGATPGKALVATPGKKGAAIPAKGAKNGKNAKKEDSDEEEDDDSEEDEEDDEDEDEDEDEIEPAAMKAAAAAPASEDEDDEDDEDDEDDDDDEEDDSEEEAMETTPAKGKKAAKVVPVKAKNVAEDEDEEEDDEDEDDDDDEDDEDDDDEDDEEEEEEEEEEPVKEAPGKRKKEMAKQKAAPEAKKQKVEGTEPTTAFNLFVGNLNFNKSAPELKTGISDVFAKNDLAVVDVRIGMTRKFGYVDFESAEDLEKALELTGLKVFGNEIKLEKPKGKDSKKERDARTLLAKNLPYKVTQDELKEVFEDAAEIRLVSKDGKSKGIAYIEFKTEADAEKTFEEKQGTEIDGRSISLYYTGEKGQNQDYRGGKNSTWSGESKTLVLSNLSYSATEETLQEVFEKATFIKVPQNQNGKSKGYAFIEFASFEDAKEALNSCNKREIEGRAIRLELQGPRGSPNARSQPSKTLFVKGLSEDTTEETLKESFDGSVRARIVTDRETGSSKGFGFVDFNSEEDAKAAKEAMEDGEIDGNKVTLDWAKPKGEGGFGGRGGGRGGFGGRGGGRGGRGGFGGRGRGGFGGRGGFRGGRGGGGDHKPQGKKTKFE
UniProt Q6Z156, sequence (whole entry, looked up): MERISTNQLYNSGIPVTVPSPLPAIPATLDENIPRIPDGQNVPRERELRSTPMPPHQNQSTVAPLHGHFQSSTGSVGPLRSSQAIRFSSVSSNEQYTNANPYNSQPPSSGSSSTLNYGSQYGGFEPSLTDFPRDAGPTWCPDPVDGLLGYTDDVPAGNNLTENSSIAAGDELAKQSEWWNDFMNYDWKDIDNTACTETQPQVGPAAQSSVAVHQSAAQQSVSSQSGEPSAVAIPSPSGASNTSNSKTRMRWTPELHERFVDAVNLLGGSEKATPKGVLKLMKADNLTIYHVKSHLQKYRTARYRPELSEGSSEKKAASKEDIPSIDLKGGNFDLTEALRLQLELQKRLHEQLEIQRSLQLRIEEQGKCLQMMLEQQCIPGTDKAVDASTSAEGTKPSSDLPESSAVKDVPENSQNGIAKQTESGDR
UniProt Q15717, sequence (whole entry, looked up): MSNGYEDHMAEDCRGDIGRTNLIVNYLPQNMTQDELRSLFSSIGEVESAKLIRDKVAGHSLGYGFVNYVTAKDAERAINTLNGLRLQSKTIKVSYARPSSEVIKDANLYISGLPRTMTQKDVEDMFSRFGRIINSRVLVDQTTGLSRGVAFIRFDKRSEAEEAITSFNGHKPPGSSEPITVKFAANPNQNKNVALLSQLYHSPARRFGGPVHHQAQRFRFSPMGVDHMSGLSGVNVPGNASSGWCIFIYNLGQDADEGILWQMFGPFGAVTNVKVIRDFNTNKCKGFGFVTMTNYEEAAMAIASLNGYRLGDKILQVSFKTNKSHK
UniProt Q9NUX5, sequence (whole entry, unmodified, looked up): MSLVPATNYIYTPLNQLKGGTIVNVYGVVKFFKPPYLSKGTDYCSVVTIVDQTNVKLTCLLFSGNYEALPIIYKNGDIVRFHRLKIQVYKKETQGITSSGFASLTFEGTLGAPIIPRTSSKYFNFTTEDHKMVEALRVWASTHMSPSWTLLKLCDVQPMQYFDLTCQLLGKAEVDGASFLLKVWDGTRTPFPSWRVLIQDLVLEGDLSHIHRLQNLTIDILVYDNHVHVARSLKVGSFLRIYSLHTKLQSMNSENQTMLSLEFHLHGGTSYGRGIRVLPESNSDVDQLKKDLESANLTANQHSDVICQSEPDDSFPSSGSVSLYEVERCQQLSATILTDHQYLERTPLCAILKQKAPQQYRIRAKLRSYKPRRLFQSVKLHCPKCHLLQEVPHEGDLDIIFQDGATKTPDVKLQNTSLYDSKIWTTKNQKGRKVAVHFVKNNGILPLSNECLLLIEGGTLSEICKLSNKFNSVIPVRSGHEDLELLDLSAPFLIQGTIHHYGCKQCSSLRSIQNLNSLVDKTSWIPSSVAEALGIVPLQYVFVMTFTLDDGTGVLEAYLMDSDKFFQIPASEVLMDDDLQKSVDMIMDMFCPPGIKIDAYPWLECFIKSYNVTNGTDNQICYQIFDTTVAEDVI
UniProt Q64MA1, sequence (whole entry, looked up): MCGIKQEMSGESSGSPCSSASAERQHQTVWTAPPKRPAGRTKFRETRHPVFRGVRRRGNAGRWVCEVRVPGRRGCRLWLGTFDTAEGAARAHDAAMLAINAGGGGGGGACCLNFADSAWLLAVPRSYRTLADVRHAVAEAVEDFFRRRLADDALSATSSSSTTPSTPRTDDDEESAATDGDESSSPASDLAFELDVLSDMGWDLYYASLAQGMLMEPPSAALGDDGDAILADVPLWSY
UniProt P0A7G6, sequence (whole entry, unmodified, looked up): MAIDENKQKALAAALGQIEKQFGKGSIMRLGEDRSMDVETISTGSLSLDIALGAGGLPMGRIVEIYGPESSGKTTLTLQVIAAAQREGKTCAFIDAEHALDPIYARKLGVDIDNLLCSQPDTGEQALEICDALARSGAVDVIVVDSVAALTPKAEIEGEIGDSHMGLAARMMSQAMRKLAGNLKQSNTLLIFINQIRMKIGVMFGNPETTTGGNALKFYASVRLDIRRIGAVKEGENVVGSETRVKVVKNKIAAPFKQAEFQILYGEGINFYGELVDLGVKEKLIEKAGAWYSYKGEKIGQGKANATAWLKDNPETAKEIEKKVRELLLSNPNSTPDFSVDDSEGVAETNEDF

CAGAATGGAAGAGAGAATAATCAGAGAGGAAGAGAATTTTCATTC (dsDNA)
binding (gbp (Glycine max, UniProt Q8LKV1); EMSA; double-stranded DNA, one strand shown): binds

GGTTAGGGTTAGGGTTAGGGTTAG (ssDNA; 5'-phosphate)
binding (POT1 1-299 (Homo sapiens, UniProt Q9NUX5); EMSA; single-stranded DNA): binds

CACGTGCACGTGCACGTGCACGTGCACGTG (dsDNA; blunt, self-complementary)
binding (BHLH domain-containing protein 1-571 (Glycine max, UniProt I1LF47); EMSA; double-stranded DNA, one strand shown): binds

colistin
MIC (Pseudomonas aeruginosa; broth microdilution; clinical isolate RKI-No_484/15): 1 µg/mL

GGTGACACAAGAAAGGTATCTTTG (dsDNA)
binding (SPL2 1-415 (Malus domestica, UniProt D9ZJC1); EMSA; double-stranded DNA, one strand shown): no binding

TTAGCAAAATACGTTTCAACTTCT (dsDNA)
binding (HY5 full length assumed (Solanum lycopersicum, UniProt Q9SM50); EMSA; double-stranded DNA, one strand shown): binds

TTATTTTTAAAAAATAAAATTTAAAATATTTTATTTTTAAAAAATAAAATTTAAAATATT (dsDNA)
binding (CENPI 57-281 (Homo sapiens, UniProt Q92674); EMSA; double-stranded DNA, one strand shown): binds

ATTTATATTATTTATTCATATTTATATTTA (ssDNA)
binding (APOBEC3F 1-185 W126A (Homo sapiens, UniProt Q8IUX4); EMSA; single-stranded DNA): no binding

DNA 1 TTGATAAGAGGTCATTTTTGCGGATGGCTTAGAGCTTAATTGCTGAATCTGGTGCTGTAGCTCAACATGTTTTAAATATGCAATGAC / DNA 2 TTAAAACATGTTGAGCTACAGCACCAGATTCAGCAATTAAGCTCTAAGCCATCCGCAAAAATGACCTCTTATCAA (dsDNA; 3' 12 nt overhang)
binding (MGM101 23-269 (Saccharomyces cerevisiae, UniProt P32787); native MS; double-stranded DNA): binds

DNA 1 CACTGGCCGTCTTACGGTCGCTCTGCTCGACG / DNA 2 CGACCGTAAGACGGCCAGTG (dsDNA; 20 bp, 3' 12 nt overhang)
Kd (RECQL 63-592 K171A (Homo sapiens, UniProt P46063); fluorescence anisotropy; double-stranded DNA; added: Mg2+ 3 mM): 78.8 ± 36.7 nM

GTGTTCGGACTCTGCCTCAAGACGGTAGTCAACGTGCTTG (dsDNA)
binding (XRS2 1-325 R48E (Saccharomyces cerevisiae, UniProt P33301); EMSA; double-stranded DNA, one strand shown; abolished): no binding

GGCCUUGCACAGUAGUCCAGCGGUAAGGGUGUAGAUCAGGCCCCAUUAAACAUCUACUGAUCCAAUUUCGCCGGCGUACGGCCACGAUCGGGAGGGUGGGAAUCUCGGGGGUCUUCCGAUCCUAAUCCAUGAUGAUUACGACCUGAGUCACUAAAGACGAUGGCAUGAUGAUCCGGCGAUGAAAAA (structured RNA)
binding (Reverse transcriptase-like protein 275-1114 D996A (Bombyx mori, UniProt V9H052); competition; folded RNA): binds

TAGTACTTGATATATCTTAAGCCCACTGTTCTGTTTTAGCGAGGAAAATGTTACCGGCGA (dsDNA)
binding (CCA1 full length assumed (Arabidopsis thaliana, UniProt P92973); EMSA; double-stranded DNA, one strand shown): binds

CTGTGAGTTGATGATGATATCATGTAGGC (dsDNA)
binding (MADS-RIN-like protein 1-249 (Fragaria ananassa, UniProt Q84U54); EMSA; double-stranded DNA, one strand shown): binds

GGTTAGGGTTAG (ssDNA; 5'-phosphate)
binding (POT1 1-299 R83E (Homo sapiens, UniProt Q9NUX5); EMSA; single-stranded DNA): binds

CCGCCGCCGCCGCCGCCGCCGCCGCCGCCGCCGCCGCCG (ssRNA; 39 nt)
binding (NR1I2 (Homo sapiens, UniProt O75469); EMSA; RNA; 200 nM RNA): binds

GGTGGTGGTGGTGGTGGT (ssDNA)
binding (recA full length assumed F204A (Escherichia coli, UniProt P0A7G6); fluorescence anisotropy; single-stranded DNA; added: ATPγS): binds

CCACGACAGTTACGTATGAACCTTTG (dsDNA)
binding (HY5 1-158 (Solanum lycopersicum, UniProt Q9SM50); EMSA; double-stranded DNA, one strand shown): binds

GAACAUAGAAAGAGAGAGAUAUAAA (ssRNA)
binding (ECT2 full length assumed (Arabidopsis thaliana, UniProt Q9LJE5); EMSA; RNA): no binding

CCAATCAATAGCTGAAAACTGCGCAGGAGA (dsDNA)
binding (ERF-D2 full length assumed (Solanum lycopersicum, UniProt A0A3Q7JX06); EMSA; double-stranded DNA, one strand shown; mutant probe): no binding

GCAGCUCGGGGAUCAUGGCCCACUGAACCCCCAAGCGC (structured RNA)
binding (NFKBIA 5-63 (Homo sapiens, UniProt P25963); NMR; folded RNA): no binding

ACCAAGCGGGATGCGGTGCCGCCGCCGCCGCCG (dsDNA; blunt)
binding (WT1 zinc finger domain 323-435 (Homo sapiens); EMSA; double-stranded DNA, one strand shown): no binding

AGCGAAAUGGGAGGGUUA (ssRNA)
binding (NCL 300-650 (Homo sapiens, UniProt P19338); pull-down competition, competition; RNA): binds

UAUAU (ssRNA)
binding (Rc3h1 411-454 (Mus musculus, UniProt Q4VGL6); NMR; RNA): binds

CGGCCGGGCGCCCGGCATGGCGGCCTATAAAAGGGC (dsDNA)
binding (Mot1/TBP Mot1 1-1886; TBP 1-255 (Chaetomium thermophilum); cryo-EM structure; double-stranded DNA, one strand shown; added: ADP-BeF3; Mg2+): binds

BzATP
normalized current (P2X purinoceptor 7 (P2rx7, Rattus norvegicus, UniProt Q64663, Q143A/R125A); ion current, agonist, two-electrode voltage clamp; Xenopus laevis oocytes; 3.7 µM; relative to: highest concentration response): 0.0362 and 0.0363 and 0.0516

11-deoxycorticosterone
rate constant k-3 (CYP11B2 (human); substrate binding, stopped-flow kinetic modelling; 4-state branched induced-fit model, added: no adrenodoxin): 0.489 min⁻¹

GTGTGGTTAATATGGTGTGGTTAATATGGTGTGGTTAATATGGTGTGGTTAATATG (dsDNA)
binding (RNJ 604-911 W850A (Arabidopsis thaliana, UniProt Q84W56); EMSA; double-stranded DNA, one strand shown): no binding

TCGATTTTCGCGCAAATT (dsDNA; blunt)
binding (rcoM2 full length assumed (Paraburkholderia xenovorans, UniProt Q13IY4); fluorescence anisotropy; double-stranded DNA, one strand shown; Fe(II)-CO): no binding

GGGCGAAUUCUGCUCCAUGUGUGCACCUACUGCUCCAUGUGUGCACCUACUGCUCCAUGUGUGCACCUACA (ssRNA)
binding (GPATCH4 full length assumed (Homo sapiens, UniProt Q5T3I0); pull-down; RNA; radiolabelled RNA, denaturing PAGE readout): no binding

AGTTGGCAAGTC (dsDNA)
binding (NFIB 14-176 R117A/K126A (Homo sapiens, UniProt O00712); BLI; double-stranded DNA, one strand shown; added: Zn2+ 1 mM): no binding

CTGCGCACGCATCTGATGGGATATTCTGATCCTTGGTGGATCCC (dsDNA)
binding (PHR2 1-426 (Oryza sativa, UniProt Q6Z156); EMSA; double-stranded DNA, one strand shown): binds

GTGACAATGCTATTTGGCCATGTCGGTATGGTTGGCGTTAGGGGTGA (dsDNA)
binding (DREB1A 1-238 (Oryza sativa, UniProt Q64MA1); EMSA; double-stranded DNA, one strand shown): binds

methyl-β-cyclodextrin
glycine uptake rate (Sodium- and chloride-dependent glycine transporter 1 (SLC6A9, Homo sapiens, UniProt P48067); transport activity, [3H]glycine uptake; 2.5 mg/mL, 1 min, added: glycine 600 µM; higher = more transport): 62.9 a.u. and 51.1 a.u. and 51.4 a.u. and 66.3 a.u.

ACCAAGCGGGATGCGGAGCCGCCGCCGCCGTCG (dsDNA; blunt)
binding (WT1 zinc finger domain 323-435 (Homo sapiens); EMSA; double-stranded DNA, one strand shown): no binding

CAGCCAACTAAACTA (dsDNA)
binding (T1, TnsC/TnsD A225V (Escherichia coli); EMSA; double-stranded DNA, one strand shown; added: ATP 0.33 mM): binds

TGCGATTCGTTGTATCCGTAACATTTCCACCGAGCGTTTTGTTTTTCTTCTGTTCCTCTA (dsDNA)
binding (LHY full length assumed (Arabidopsis thaliana, UniProt Q6R0H1); EMSA; double-stranded DNA, one strand shown): no binding

AAGGTGTGTGGGTGTGA (dsDNA)
binding (RAP1 1-827 (Saccharomyces cerevisiae, UniProt P11938); EMSA; double-stranded DNA, one strand shown): binds

AGCCGATGGAATCATCGGTCCGATCAACGTCGCCTTCATTGCATCAGACTCACCAT (dsDNA)
binding (HY5 full length assumed (Arabidopsis thaliana, UniProt O24646); EMSA; double-stranded DNA, one strand shown): binds

UAUUAUUGU (ssRNA)
binding (pos-1 97-173 (Caenorhabditis elegans, UniProt G5EF15); NMR 15N-1H HSQC; RNA): binds

AGAGAGAGAGAGAGAG (ssRNA)
binding (EIF4A1 1-406 (Homo sapiens, UniProt P60842); fluorescence polarization; RNA; added: ATP, silvestrol 10 µM): binds

ATTGCCGATGCCCGCAGGCTCC (dsDNA)
binding (ddrC 1-231 (Deinococcus radiodurans, UniProt Q9RYE6); EMSA; double-stranded DNA, one strand shown; 100 nM): no binding

Peginesatide
phosphorylation level (UT7/EPO; tyrosine phosphorylation, LC-MS/MS phosphoproteomics, GluC, refers to: MLLT4 tyrosine 1480; 10 nM, 15 min, added: 10 U/mL EPO; relative to: vehicle): 9.6 fold

ATAAGTCACATGATGATATTTGATTTTATTATATTTTTAAAAAAAGTAAAAAATAAAAAGTAGTTTATTTTTAAAAAATAAAATTTAAAATATTTCACAAAATGATTTCCGAA (dsDNA)
binding (CENP-I 1-229 K209E (Thermochaetoides thermophila, UniProt G0SFF7); EMSA; double-stranded DNA, one strand shown): binds

ATTTTTA (ssDNA)
binding (ELAVL1 2-99 (Homo sapiens, UniProt Q15717); ITC; single-stranded DNA; pH 5.5, 25 °C): binds
